Experimental data collected from several papers.
Numbered parts are unrelated; each lists some results of a single study. Changes are numbered by the printed parent chain.

Set 1
Target: CCNB1, cyclin fold, Cln2 fusion (human)
Method: yeast growth competition, sequencing
Sample: yeast
Setting: strong parent motif
Reference: not given
Direction: higher = stronger binding
Starting sequence: PKN2 docking peptide (human); VSAVQKLDFSDTM
Substitution	normalised enrichment score
SSAVQKLDFSDTM [V1S]	2.1
VYAVQKLDFSDTM [S2Y]	2.4
VSAVQKLDFSNTM [D11N]	2.15
VSAVQMLDFSDTM [K6M]	1.25
VSAVQKLDFSDAM [T12A]	2.07
VWAVQKLDFSDTM [S2W]	1.84
VSLVQKLDFSDTM [A3L]	1.68
VSAVQKLCFSDTM [D8C]	1.55
VSAVQKHDFSDTM [L7H]	0.0879
PSAVQKLDFSDTM [V1P]	2.41
VSAVQKLIFSDTM [D8I]	1.36
VSMVQKLDFSDTM [A3M]	0.576
VSAVQKLDFWDTM [S10W]	1.18
VSAAQKLDFSDTM [V4A]	0.535
VSAVQKLMFSDTM [D8M]	1.69
VHAVQKLDFSDTM [S2H]	1.01

Set 2
Target: ABI1, truncated, D143A, DHFR fusion (Arabidopsis thaliana)
Method: DHFR PCA, deep sequencing
Sample: yeast
Setting: methotrexate growth selection, single substitutions
Added: (+)-ABA 0.032 µM
Reference: wild-type fitted maximum
Direction: higher = stronger binding
Starting sequence: PYL1, truncated, DHFR fusion (Arabidopsis thaliana); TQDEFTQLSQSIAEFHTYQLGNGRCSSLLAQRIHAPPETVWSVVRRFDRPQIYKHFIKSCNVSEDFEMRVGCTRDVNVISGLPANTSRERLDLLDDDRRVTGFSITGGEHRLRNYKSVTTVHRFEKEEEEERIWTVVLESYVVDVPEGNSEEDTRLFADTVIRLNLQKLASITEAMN
Substitution	relative binding score
L93V	35.3%
Q7K	25.9%
A158P	-6.23%
E64P	47.8%
E128I	7.5%
E38N	-1.26%
N177F	42.8%
C60P	-1.31%
G108N	-3.67%
E131C	39.2%
M68C	2.61%
V161T	10.8%
L169C	-0.611%
V78K	1.05%
L164K	1.63%
A35C	5.23%
V76K	6.49%
E130W	5.67%
T6C	18.7%
V44A	4.21%
S27A	5.22%
V100E	3.2%

Set 3
Target: Ras GTPase-activating protein-binding protein 1, C-terminal RGG region (G3BP1, Homo sapiens, UniProt Q13283)
UniProt Q13283, sequence (whole entry, looked up): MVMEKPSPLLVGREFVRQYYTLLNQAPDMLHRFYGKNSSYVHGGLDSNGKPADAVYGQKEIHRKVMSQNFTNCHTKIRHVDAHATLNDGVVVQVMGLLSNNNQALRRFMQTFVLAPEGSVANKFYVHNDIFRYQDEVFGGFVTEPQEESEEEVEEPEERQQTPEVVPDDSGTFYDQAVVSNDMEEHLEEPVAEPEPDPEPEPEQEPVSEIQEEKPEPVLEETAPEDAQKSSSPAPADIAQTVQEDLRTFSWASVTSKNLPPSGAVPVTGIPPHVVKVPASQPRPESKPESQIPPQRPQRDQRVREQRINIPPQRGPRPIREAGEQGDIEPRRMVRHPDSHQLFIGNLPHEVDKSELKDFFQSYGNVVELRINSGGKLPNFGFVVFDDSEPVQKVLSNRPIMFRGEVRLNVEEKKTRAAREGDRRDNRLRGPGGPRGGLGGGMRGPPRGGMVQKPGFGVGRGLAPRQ
Method: RNA Bind-n-Seq
Molecule type: RNA
Sample: in vitro
Concentration: 1 µM
Setting: whole 134-nt RNA, ends assumed
Added: 150 mM KCl
Reference: input library
Direction: higher = stronger binding
All sequences stand within: GGGAGUUCUACAGUCCGACGAUC … UGGAAUUCUCGGGUGUCAAGG
Strand	log2 enrichment
GCAGGAAGUAAAAACAAAUAGAAAUGCUUCGGAUAGUGGCAGGGGUGGGGGUUGCUAAGGAAAGGGUGGGAUGGGAGUGGGUAAAGAGUU	1.77
CCUCAAGUCCUGUGCUACACAUCGUAUGUACCGAAUCGGUGGUUUGGAAAGGAAAGUAUUAUGUUACGCCGUUCGGAUCUGCACUUCCAG	-0.677
CCUCAAGUCCUGUGCUACACAUCGUAUGUACCGAAUCGGAAGGAAGGAAGGGAAAGUAUUAUGUUACGCCGUUCGGAUCUGCACUUCCAG	-0.72
GUCCUGUGCUACACAUCGUAUGUACCGAAUCGGGUUUUGGGGUUUUGGGGUUUUGGGGAAAGUAUUAUGUUACGCCGUUCGGAUCUGCAC	0.68
UGGGAGGUGGAUUUGGUUUAUUUUUUUAGCUCAUUUCCAGGGGUGGGAAUUUUUUUUUAAUAUGUGUCAUGAAUAAAGUUGUUUUUGAAA	2.97
CCCAGACAACACGCACCCACACAGACACAGAGGGAAGGGGUUGGGAUGGGGACAGGGUGCACAGCAGGGCGGGGUAGGACCCCAGCCCCU	0.0806
ACCAUGCAGGUGGGCAUCUUUGGGAAGUGGGGCAAGGGGGGGAUAGGGAGGGGGGUAACACUUUGGGAACAGGUGGUCCCAGCUCGUUUC	2.01
CACAGACAACACGCACCCACACAGACACAGAGGGAAGGGGAUGGGAUGGGGACAGGGUGCACAGCAGGGCGGGGUAGGACCCCAGCCCCU	-0.405
UCAAGUCCUGUGCUACACAUCGUAUGUACCGAAUCGGUUUUUGGAGGUUUUUGGAAAGUAUUAUGUUACGCCGUUCGGAUCUGCACUUCC	-0.958
GUCCUGUGCUACACAUCGUAUGUACCGAAUCGGCCCCCCGGCCCCCCGGGGCCCCCCGGAAAGUAUUAUGUUACGCCGUUCGGAUCUGCA	-0.825

Set 4
Target: RING finger protein unkempt homolog, zinc fingers 1-6, GST-SBP tag (UNK, Homo sapiens, UniProt Q9C0B0, residues 30-357)
Method: RNA Bind-n-Seq
Molecule type: RNA
Sample: in vitro
Concentration: not given
Setting: RNA with constant flanks, ends assumed
Reference: input RNA pool
Direction: higher = stronger binding
All sequences stand within: GGGAGUUCUACAGUCCGACGAUC … CAACAGAGGAUUGAGCAUCA
Target sequence (chain): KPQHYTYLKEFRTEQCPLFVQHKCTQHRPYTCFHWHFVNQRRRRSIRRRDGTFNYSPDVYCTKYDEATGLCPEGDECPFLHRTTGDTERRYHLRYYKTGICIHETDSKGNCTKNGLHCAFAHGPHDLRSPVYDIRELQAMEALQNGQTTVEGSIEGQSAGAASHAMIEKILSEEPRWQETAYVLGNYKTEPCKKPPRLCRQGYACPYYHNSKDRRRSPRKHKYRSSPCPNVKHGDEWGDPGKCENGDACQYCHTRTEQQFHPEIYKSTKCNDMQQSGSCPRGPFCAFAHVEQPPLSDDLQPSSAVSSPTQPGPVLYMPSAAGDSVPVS
Strand	bound/input enrichment
CUGGGGGCCGGGGCGGUGGCCUACGGCGUCCGCGAAUCCGUGUUCACCGUGGAAGGCGGUCACCGAGCCAUCUUUUUUAAUCGUAUUGGUGGCGUGCAGCAGGACACGAUCCUGGCCGAA	0.0925 ratio
CAUCUGCAGGAUAUUAAAGUGAAGUUUUCAGACCCUGGACAACCUAUGUCUUUUGUGCCCGAGUUUCACUUUGAACCCAACGACUACUUCACCAAUCCUGUCCUGACGAAAACGUACAAG	0.115 ratio
CGAUUACACAGGGUCAAGACCGUCUGCAGCAAGCACAUGCAUCCCCUCCGACUGGUGUGAGCCGUAAGAAAAGCACACACAGACAGGAGGACAUCUGGAGCCACACAAACUGGGUGGAAA	0.0948 ratio
UUUGCAAAUUAUAUUGCCAGAGACACACGUCGCCUUGGCGCAACAAUACUAGACCGUAUACACCGUCUUCAAAUUAAUAGCAGUUUGAGCACCUACUCUCUCGUAGACUCUGUUGGAAAU	0.565 ratio
CAGCCUUAAGCACAAUUAAUUAAGAGUGAAACGUAAUUGUACAAGCAGUUGGUCACCCACCACCGGGCAUGAUCAACACCGCAACCUUUCCUUUUUCCCCCAGUGAUUCUGAAAAACCCC	0.208 ratio
UUAGAUCUCUGAGGCUCAGAAAAAGGAAAGGGUGUCUCAUCCCGCUUUCUCGCUUUUCGCUUCCGCCAUGGCGGAGACAGGGGCCGGGAUAAGUGAGACCGUCACUGAGACAACGGUUAC	0.138 ratio
UUUUAUGGCAUGUAAUGGUGUUUGGUAAUAUUUUAAUGUAGAAUUUGAUUAUUUCAGCAACCGUAAUUUUGAGAUAUUCUUUGAAUGAAAAGUGUCUUCGUUUCUAUGAUACAGGUCAUU	0.471 ratio
AGGAGCCAGGAGAGGCGGGCGGGUCCCUAACGCUCGCAUUUGGGUAAAAGUCGCACGGAGCCGCAGCGUCUGUUCUGCACCAACUCAGAGUCUUGUUGGAGCUUUAUCCCUUUGUCCUAG	0.117 ratio
AUUGCAGCUAAAUAUCAGUUGGAUCCCACUGCUUCCAUUUCUGCAAAAGUCAACAACUCCCGCUUAAUUGGAGUAGGCUAUACUCAGACUCUGAGGCCUGGUGUGAAGCUUACACUCUCU	0.177 ratio
GUACGAGUUGAAUGGAUCGCAGCAGUUACCAUUGCUGCUGGGACAGCUGCAAUUGGUUAUCCCGCUUACAAAAGAUUUUAUGUUAAAGAUCAUCGAAAUAAAGCUAUGAUAAACCUUCAC	0.176 ratio
AAGGAAACAAUGUUUAGUAGUUUGAGAAGCCACGGGAUGUACAGUUUGGUUAUCAGCCUUAACCGGCUACACUAGUGGUAGGUAGUGUAGACAGAGAUGUAAAUGUGCUGUUCCAAAACU	0.974 ratio

A few entries again (set 3):
Strand	log2 enrichment
GCAGGAAGUAAAAACAAAUAGAAAUGCUUCGGAUAGUGGCAGGGGUGGGGGUUGCUAAGGAAAGGGUGGGAUGGGAGUGGGUAAAGAGUU	1.77
CCUCAAGUCCUGUGCUACACAUCGUAUGUACCGAAUCGGUGGUUUGGAAAGGAAAGUAUUAUGUUACGCCGUUCGGAUCUGCACUUCCAG	-0.677
CCUCAAGUCCUGUGCUACACAUCGUAUGUACCGAAUCGGAAGGAAGGAAGGGAAAGUAUUAUGUUACGCCGUUCGGAUCUGCACUUCCAG	-0.72
GUCCUGUGCUACACAUCGUAUGUACCGAAUCGGGUUUUGGGGUUUUGGGGUUUUGGGGAAAGUAUUAUGUUACGCCGUUCGGAUCUGCAC	0.68
UGGGAGGUGGAUUUGGUUUAUUUUUUUAGCUCAUUUCCAGGGGUGGGAAUUUUUUUUUAAUAUGUGUCAUGAAUAAAGUUGUUUUUGAAA	2.97
CCCAGACAACACGCACCCACACAGACACAGAGGGAAGGGGUUGGGAUGGGGACAGGGUGCACAGCAGGGCGGGGUAGGACCCCAGCCCCU	0.0806
ACCAUGCAGGUGGGCAUCUUUGGGAAGUGGGGCAAGGGGGGGAUAGGGAGGGGGGUAACACUUUGGGAACAGGUGGUCCCAGCUCGUUUC	2.01
CACAGACAACACGCACCCACACAGACACAGAGGGAAGGGGAUGGGAUGGGGACAGGGUGCACAGCAGGGCGGGGUAGGACCCCAGCCCCU	-0.405
